# Published values pooled from the literature.
# A part holds a random share of what one study measured. Positions count from the first letter of the parent shown.

# Series 1 — target: CCNE2, cyclin fold, Cln2 fusion (human); method: yeast growth competition, sequencing; sample: yeast; notes: strong parent motif; baseline: not given; direction: higher = stronger binding
# Parent: GMNC docking peptide (human); KNAKRNLSSEFAN
Variant,normalised enrichment score
N6V,0.211
K4I,1.54
E10K,0.431
L7T,0.738
S8Y,1.35
S9V,1.52
E10I,1.02
L7H,0.444
S8A,1.7
F11A,0.108
N2W,0.776
F11S,0.352
E10Y,0.672
A3E,0.246
L7Q,0.159
N6W,0.187
E10P,0.0239
K4T,0.285

# Series 2 — method: competition protein-binding microarray; molecule type: double-stranded DNA, one strand shown; sample: in vitro; tested at: 2 µM; together with: Cbf1 competitor, 0.05 µM; direction: higher = stronger binding; shared flanks, not repeated: … GTCTTGATTCGCTTGACGCTGCTG
# Target: Phosphate system positive regulatory protein PHO4, full length, GST-tagged (PHO4, Saccharomyces cerevisiae, UniProt P07270, residues 1-312)
# Notes: whole 60-bp probe, lowest competitor level
# Construct (chain): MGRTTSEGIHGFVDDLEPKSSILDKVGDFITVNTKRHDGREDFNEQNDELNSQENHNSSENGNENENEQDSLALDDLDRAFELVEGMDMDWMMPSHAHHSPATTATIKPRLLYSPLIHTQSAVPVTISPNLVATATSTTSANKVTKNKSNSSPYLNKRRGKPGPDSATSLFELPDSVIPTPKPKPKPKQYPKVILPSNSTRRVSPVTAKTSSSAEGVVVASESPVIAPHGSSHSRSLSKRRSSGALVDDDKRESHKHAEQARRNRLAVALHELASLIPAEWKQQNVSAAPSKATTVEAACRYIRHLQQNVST
Strand,fluorescence intensity [a.u.]
GATGCCCTGCACCTTCGCGTGAGGAAAAGCAAAAAG,4990
CAACTACGCTGGATCGACGTGGGACTGGCAGGGAAG,4710
CACGTAGAAGCTATCTTGATCAAGACTCTTTCTTTA,3470
ACAGCATTCGACGGAGTCGTGGGTACTTACGAACGG,7990
GGATTTGATTACCATCACGTGATGGAATGCTTTTGT,14600
GTCTTGTCTCATTGTCACGCAACTTTCCCCACTTCA,5360
GTCTTGTCTCATTGTGTGGTGGGTGTCCCCACTTCA,5280
ACAAGCGGAGATTCACACGTTTAATTGGACCACTGG,8820
ATTGTCGCTGATAAAATCGTGATGGTCGATCAATGT,5170
ATCCTCATGTTCTTCCACGTGAAGATCGCCCGCTTC,13100
TACATAGTAACGTATCACCTGTTTTACTTTCAAGAT,5400
TTACATCATTGGCAACACATGCCTGGATCGCTTTAG,9880
GCAATCTTCCTGAATCACCTGGCACTTTAGATGAAA,3550
CTTTTCCGGTTGAGACTTGAGCAAGTGCTTCAGTTT,3610
CGGGGTTAAGTTTGTTAAGTGGGTGGCTTGCAGCAG,3950
CGTCCTAGTGATTGTGGCGTGGGTGCCATGAGGAAG,7230
CGCTAGTACTTTATTCTCGTGGTGAGCATTTGAAGT,8400
GTCTTGTCTCATTGATATGTGGGTGTCCCCACTTCA,4900
CCAGGCCTCCAAGCCCACGTGACAACAAGCTCCGCC,17200
AAATTACTAAGTTGTAGAGTGGGTGACGCCGTATGA,4300
CATCTGCCATTCAACAACGTGCCAGCAGGCCTATTA,14300
ACCAGACGAAATCGGCACGGCATTAGGAATTCGGTA,4640
GTTGGCGAGGAAGATCGCGTGCGGACTAATTTTGAA,9280

# Series 3 — method: protein binding microarray; molecule type: double-stranded DNA, one strand shown; sample: in vitro; tested at: not given; baseline: not given; direction: higher = stronger binding
# Target: Histone acetyltransferase KAT6A, winged helix 1, GST fusion (KAT6A, Homo sapiens, UniProt Q92794, residues 1-85)
# Notes: 8-mer, flanks averaged, mean of 2 arrays, mostly near background
# Target sequence (chain): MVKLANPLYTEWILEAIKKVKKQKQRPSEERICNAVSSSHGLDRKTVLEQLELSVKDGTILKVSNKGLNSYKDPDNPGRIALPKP
Strand,E-score
AGTGGGTC,-0.126
TAAACATA,-0.113
GGTGTGAC,0.0234
CCCCGAGG,0.101
CCCGCGAG,0.353
CTTATTCA,-0.201
CACAAGTA,-0.138
AACCGATA,0.0862
ACCGGGAA,0.252
CACGATCC,-0.107
CGATCGGA,0.165
GAATATGC,0.00639
GTTTTAGA,-0.148
GAATAGTA,-0.122
GTGAGGGA,-0.109
AGGCGGAC,0.205
AGGCTCGA,-0.113
CTGCTCCC,-0.0606
AACGGTCT,-0.0336
ATCCCGCG,0.426
ACTCCACA,-0.269
ATATACCG,0.2
AGTTATAC,0.0814
CCAGCGCA,0.179
CCTTATCC,-0.0826

# Series 4 — method: RNA Bind-n-Seq; molecule type: RNA; sample: in vitro; tested at: 365 nM; baseline: no-protein control; direction: higher = stronger binding
# Target: RNA binding protein fox-1 homolog 2, RRM domain, GST-SBP tag (RBFOX2, Homo sapiens, UniProt O43251-10, residues 100-194)
# Notes: natural RNA segment, single round, ends assumed
# Shared flanks, not repeated: GGGAGUUCUACAGUCCGACGAUC … UGGAAUUCUCGGGUGCCAA
Strand,RBNS enrichment (R)
UGUGUUCUCCUCUGUUACUGAUCUGGAAGUGUGGGAACGUGAACUGAAGCUGAUGGGCUGCGAACAUGGACUGAGCUUGUGGUGUGCUUUGCAGGAGAACUUGGAAGCAG,0.984
AAUGUUACCUUCUCUCCAUGCUGCCAUUAUGCCAAAACAAAAGCUGUGAUAAAAAAAGUGCUUGAGAGAGUGUGUUGAUAAGAAAGUGAUUUAUUUACAGAUGGAAGUCU,0.367
GUAUCACCUUCACUGACUCCAUUGAGUCAUUGAGCAUCUGUACAUAUCCUUCACCACCCCCAGUCCCAGCACCUGUGUCAGUAAAGAAAGUGGACACAUUAGUAAUGGUU,0.405
UUGCUGUGGAGACCCCGUGGCUCUGCACUUUACCCGUGAGGGCAUUAACCUGACCCAGCAUGGAAGGAGGUGUGGGUACCUUCUCAGAAAGUCCUUAAUUUACAGUGGCC,2.1
UUCAUUGGGGAGGAUACAACUUUUGACUUUACACAGGUGGACUUUGAAUCCAUUUUUAUAGAAUUUUUUUCCACUGUAACUUGACCUAUAUUAUGCAAGAAAAUCCCAAA,0.635
UGUAUUUUAGUAGCAGUUGAGGCAAUUAGUUUUAGGGUGAAUUUUUCACUGUUGAUUUUACUUUAAGAUGUAGCCAGAGAAAGUUUUGUUUUUAAGGCAUUUUAAAGCUG,0.54
GGAUGCAUUUGGAUGUACAGACUGACUGGGGGACUGUAUUGCGAUGAUGAUUGGUGUAGAAACGUAUGGGUCUGGGUGGCCUUUUACAUCUUGCCUACCAUUGCAUGAAA,2.24
CAGACAGGAAAGGGAAGGCCCCACAGACAAGGUAGCCCUGGCCAGAGGCUUGUUUUGUCUUUUGGUUUUUAUGAGGUGGGAUAUCCCUAUGCUGCCUAGGCUGACCUUGA,0.451
AAGGCGGUUUGGCCAGGCUUACUGCAGGCAUCCGACUGUAGAGAUCGCCACAGUCUCUGGGGCUCCAGGGCUGCGCUGUAACUGAGCUUCAUCCAGAAUGAGCAAAACAC,0.361
AGGAAAAGAGAGAAAAAGGCAAAGCAAGGUUGUGGCCUUAGGUUGGACCUGGAAUAUCCCUUAUUGCCUAUAAUGGAAUAUGUGACACUGUGGGUGAAAUGUUCUACACA,1.16
AACUAUGUGGGUCUGUGAAUUUCUUUAAUGUCUAAGAAAUCCAGCUUCAUAAUUUCCAUGAUACAAAGAUCUUUUUUCAGGUGGAUUUUUACCUUUGUUCCUUUUGCUCU,1.25
CAGCAUAAUUAGUGUUGAGAGUGGUUCAGUUGUCUUUAAUGUUUGUCAUGUGGAAAUGGAAGUAGCCUCUUUUUGUUCUGAAAUUGAGUUUAUUCAAAGUGUAAAAGCAC,1.4

# Series 5 — method: universal PBM; molecule type: double-stranded DNA, one strand shown; sample: in vitro; tested at: 600 nM; direction: higher = stronger binding
# Target: Sal-like protein 4, full length isoform A (SALL4, Homo sapiens, UniProt Q9UJQ4, residues 1-1053)
# UniProt Q9UJQ4, sequence (whole entry, looked up): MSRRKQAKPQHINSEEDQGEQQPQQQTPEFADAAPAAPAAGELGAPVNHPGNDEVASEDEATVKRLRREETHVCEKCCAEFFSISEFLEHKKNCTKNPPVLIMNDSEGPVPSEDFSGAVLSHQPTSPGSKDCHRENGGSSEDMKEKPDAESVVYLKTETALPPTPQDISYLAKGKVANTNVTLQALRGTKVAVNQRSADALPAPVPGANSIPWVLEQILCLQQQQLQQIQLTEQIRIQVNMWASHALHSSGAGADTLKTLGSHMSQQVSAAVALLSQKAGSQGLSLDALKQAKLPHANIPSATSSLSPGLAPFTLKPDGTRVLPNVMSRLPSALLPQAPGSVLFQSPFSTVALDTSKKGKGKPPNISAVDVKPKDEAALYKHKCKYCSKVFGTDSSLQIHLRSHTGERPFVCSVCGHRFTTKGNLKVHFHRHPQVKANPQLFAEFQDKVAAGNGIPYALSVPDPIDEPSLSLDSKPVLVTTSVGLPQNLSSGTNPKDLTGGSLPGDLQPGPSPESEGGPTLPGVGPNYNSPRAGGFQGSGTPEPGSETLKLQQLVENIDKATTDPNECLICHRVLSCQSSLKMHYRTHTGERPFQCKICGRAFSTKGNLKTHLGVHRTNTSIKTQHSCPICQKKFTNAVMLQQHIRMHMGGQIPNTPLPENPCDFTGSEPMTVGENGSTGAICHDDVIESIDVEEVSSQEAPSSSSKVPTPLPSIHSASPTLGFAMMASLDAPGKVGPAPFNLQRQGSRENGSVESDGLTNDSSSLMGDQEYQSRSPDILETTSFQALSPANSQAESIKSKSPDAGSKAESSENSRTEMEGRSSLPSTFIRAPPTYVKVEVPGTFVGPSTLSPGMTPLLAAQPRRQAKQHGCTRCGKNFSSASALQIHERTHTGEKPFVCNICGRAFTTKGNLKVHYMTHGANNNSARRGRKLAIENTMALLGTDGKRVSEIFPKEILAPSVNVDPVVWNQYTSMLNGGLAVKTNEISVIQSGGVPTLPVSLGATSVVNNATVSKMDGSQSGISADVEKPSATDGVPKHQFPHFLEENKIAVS
# Notes: 8-mer, flanks averaged, mean of replicates
Strand,E-score
CAACCGCG,-0.18
CCAGGCGC,-0.429
CTTCCCGA,-0.105
GCCGGGTA,-0.343
TGAGACCA,-0.0906
AACCCTTA,0.0762
ACGCTATC,0.00046
CCCCTCTC,-0.323
TAAACTCA,0.193
AGAGATAG,0.146
GAGCCGAA,-0.0998
AAGAACTC,0.0934
AGGGTAAC,-0.119
AATCTAAG,0.105
CGGTACGA,-0.189
ACTTATCA,0.21
CCATTTTC,0.183
GAGAAAAA,0.17
GCTCCTGA,-0.292
AATGGGAC,-0.135
CGTATTAC,0.184
TGCCTGAA,0.0284

# Series 6 — method: DHFR PCA, deep sequencing; sample: yeast; together with: (+)-ABA 1.4 µM; baseline: wild-type fitted maximum; direction: higher = stronger binding
# Target: ABI1, truncated, D143A, DHFR fusion (Arabidopsis thaliana)
# Notes: methotrexate growth selection, single substitutions
# Parent: PYL1, truncated, DHFR fusion (Arabidopsis thaliana); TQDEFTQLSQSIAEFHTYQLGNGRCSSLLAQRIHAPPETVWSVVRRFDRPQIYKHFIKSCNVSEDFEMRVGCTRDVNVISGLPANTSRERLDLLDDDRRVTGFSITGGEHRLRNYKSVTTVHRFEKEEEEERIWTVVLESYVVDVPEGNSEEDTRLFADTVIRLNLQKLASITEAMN; partner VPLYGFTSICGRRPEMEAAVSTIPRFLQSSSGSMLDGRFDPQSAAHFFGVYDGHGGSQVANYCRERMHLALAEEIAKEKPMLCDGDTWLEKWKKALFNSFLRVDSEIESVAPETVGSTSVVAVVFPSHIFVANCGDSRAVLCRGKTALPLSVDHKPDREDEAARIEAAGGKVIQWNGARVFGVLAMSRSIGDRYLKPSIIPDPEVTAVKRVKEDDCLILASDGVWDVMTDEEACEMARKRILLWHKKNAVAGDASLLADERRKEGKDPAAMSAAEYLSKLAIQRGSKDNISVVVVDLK
Variant,relative binding score
D48F,-1.63%
R24A,13.7%
I33D,1.41%
G21N,32.4%
I105T,-0.463%
G108A,-1.72%
L28A,3.35%
I172W,-2.76%
Q7V,65.2%
S26C,42.9%
I33A,-2.07%
E67S,41.9%
N77D,49.6%
E174I,-7.08%
S140L,3.56%
L169K,-13.3%
A35E,7.55%
W134A,36%
R49W,0.412%
Y115L,-6.07%

# Excerpt of the above (series 1):
Variant,normalised enrichment score
N6V,0.211
E10P,0.0239
E10K,0.431
K4T,0.285
F11S,0.352
S8A,1.7
